Assay results collected from several papers.
Compare with care: the assays were run in different laboratories. Values joined by “and” are separate records of one study, mostly repeats; a detail may differ. ± gives the spread as reported.
Aryl hydrocarbon receptor: Aryl hydrocarbon receptor (Danio rerio, UniProt Q9YGV3)
TOP2A: DNA topoisomerase 2-alpha (TOP2A, Homo sapiens, UniProt P11388)
Chain of UniProt P11388 (whole entry, looked up): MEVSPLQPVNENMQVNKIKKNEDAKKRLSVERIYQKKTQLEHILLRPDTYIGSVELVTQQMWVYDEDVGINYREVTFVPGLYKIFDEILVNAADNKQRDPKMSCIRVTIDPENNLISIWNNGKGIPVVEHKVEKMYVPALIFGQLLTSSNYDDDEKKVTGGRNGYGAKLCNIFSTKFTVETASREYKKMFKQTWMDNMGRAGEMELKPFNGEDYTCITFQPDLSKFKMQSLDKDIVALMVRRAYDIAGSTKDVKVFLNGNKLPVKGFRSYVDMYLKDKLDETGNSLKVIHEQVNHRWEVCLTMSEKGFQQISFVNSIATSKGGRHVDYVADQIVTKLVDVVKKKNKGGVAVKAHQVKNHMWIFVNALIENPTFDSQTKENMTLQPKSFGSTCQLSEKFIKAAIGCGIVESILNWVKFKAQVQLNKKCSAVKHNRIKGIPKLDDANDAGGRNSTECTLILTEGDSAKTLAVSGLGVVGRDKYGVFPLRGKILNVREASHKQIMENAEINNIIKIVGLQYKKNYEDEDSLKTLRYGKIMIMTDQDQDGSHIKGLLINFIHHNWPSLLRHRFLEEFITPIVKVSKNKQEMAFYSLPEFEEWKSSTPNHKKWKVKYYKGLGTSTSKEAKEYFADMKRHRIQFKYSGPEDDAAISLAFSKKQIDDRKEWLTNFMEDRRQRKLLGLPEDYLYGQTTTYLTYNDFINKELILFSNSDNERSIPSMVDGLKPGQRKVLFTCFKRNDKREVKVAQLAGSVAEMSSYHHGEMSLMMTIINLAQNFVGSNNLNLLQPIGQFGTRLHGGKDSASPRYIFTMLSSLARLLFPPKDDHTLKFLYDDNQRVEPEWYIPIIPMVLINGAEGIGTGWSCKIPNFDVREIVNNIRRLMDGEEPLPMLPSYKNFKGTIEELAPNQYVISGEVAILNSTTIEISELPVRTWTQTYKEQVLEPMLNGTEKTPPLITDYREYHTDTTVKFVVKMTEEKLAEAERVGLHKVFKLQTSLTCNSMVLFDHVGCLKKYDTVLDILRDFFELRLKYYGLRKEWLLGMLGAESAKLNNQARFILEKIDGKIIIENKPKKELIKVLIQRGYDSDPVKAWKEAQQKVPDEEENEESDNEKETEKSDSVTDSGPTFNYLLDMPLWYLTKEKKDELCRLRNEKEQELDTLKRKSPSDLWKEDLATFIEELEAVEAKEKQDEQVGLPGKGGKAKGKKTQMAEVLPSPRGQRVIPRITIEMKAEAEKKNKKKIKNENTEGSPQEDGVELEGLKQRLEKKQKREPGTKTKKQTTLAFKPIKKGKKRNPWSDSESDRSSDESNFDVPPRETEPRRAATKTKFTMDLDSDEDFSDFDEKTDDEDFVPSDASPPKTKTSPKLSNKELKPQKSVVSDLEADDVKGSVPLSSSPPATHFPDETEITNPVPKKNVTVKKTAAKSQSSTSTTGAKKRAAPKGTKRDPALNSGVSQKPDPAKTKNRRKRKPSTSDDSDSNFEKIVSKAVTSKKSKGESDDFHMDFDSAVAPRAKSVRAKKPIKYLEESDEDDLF
DDB1- and CUL4-associated factor 7: DDB1- and CUL4-associated factor 7 (Homo sapiens, UniProt P61962)
Chain of UniProt P61962 (whole entry, looked up): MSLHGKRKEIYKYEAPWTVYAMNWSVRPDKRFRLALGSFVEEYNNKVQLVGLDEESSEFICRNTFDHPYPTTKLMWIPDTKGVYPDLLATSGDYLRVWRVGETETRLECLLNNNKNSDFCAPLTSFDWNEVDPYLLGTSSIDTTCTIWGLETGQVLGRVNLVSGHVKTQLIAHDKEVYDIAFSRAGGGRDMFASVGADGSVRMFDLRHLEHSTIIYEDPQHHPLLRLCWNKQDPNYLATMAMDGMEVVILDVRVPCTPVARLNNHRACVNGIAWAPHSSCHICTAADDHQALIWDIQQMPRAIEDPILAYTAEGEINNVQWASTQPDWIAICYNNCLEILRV
NF-kappa-B inhibitor alpha: NF-kappa-B inhibitor alpha (Homo sapiens, UniProt P25963)
T1: DNA aptamer; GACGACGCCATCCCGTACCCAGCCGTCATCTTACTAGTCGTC
Chain of UniProt P00519 (whole entry, unmodified, looked up): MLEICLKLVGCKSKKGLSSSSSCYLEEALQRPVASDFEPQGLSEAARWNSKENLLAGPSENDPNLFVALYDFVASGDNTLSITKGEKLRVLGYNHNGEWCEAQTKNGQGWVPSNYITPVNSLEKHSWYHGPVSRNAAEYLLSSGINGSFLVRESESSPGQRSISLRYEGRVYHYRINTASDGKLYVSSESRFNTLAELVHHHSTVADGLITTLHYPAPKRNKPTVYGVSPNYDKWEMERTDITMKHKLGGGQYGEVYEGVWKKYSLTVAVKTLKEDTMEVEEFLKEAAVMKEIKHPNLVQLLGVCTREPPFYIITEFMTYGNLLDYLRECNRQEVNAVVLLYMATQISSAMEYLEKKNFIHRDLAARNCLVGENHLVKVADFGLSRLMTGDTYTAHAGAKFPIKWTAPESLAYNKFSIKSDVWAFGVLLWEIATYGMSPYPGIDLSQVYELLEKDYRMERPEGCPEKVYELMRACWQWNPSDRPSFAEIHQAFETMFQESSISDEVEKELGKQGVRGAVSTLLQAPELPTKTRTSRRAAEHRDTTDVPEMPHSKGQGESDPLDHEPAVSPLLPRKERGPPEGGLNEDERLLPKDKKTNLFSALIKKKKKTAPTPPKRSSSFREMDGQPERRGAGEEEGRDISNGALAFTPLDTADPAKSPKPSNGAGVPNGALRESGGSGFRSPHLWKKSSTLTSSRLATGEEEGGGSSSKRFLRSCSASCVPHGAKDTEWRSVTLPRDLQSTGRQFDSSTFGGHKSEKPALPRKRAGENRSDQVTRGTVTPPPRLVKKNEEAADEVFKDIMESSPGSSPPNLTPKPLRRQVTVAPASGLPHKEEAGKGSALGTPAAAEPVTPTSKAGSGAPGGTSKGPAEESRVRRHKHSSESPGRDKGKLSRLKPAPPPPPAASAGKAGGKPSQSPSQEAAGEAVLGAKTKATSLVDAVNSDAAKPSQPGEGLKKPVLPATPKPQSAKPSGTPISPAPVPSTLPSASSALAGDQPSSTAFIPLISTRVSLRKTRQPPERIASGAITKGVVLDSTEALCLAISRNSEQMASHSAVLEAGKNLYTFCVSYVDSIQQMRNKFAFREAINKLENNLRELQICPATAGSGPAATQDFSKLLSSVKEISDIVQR
Chain of UniProt Q80VM9 (whole entry, looked up): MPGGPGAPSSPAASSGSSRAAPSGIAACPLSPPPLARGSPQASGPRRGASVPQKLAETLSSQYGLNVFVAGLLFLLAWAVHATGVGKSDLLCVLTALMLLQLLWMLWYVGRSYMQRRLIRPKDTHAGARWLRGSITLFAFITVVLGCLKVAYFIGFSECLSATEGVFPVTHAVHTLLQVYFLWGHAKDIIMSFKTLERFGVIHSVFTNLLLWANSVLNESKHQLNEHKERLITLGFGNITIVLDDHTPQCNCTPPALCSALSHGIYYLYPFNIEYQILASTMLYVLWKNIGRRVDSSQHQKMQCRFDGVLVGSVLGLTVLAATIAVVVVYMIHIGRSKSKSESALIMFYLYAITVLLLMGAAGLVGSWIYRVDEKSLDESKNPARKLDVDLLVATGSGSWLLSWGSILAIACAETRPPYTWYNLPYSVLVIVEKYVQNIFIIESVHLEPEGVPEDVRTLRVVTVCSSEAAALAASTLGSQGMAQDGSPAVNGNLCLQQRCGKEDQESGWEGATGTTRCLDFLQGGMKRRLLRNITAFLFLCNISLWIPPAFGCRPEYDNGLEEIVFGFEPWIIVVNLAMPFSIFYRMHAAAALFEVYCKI
Chain of UniProt O76090 (whole entry, unmodified, looked up): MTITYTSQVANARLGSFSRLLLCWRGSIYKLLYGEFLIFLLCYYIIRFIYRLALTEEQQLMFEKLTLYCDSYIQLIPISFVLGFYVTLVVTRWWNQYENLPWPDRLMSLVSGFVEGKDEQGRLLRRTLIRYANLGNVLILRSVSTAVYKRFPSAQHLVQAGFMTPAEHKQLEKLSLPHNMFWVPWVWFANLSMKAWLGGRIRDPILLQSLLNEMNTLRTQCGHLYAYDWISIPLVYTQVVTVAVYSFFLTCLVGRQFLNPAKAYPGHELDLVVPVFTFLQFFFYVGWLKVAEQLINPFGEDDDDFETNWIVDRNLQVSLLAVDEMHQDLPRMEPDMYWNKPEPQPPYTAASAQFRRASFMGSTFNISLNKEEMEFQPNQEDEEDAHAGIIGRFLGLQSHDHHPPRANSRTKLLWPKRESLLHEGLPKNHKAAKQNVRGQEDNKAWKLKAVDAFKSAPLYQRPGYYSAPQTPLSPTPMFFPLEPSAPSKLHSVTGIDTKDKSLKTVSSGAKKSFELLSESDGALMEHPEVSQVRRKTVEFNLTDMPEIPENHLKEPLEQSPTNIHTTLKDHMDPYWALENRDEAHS
Chain of UniProt Q01105 (whole entry, unmodified, looked up): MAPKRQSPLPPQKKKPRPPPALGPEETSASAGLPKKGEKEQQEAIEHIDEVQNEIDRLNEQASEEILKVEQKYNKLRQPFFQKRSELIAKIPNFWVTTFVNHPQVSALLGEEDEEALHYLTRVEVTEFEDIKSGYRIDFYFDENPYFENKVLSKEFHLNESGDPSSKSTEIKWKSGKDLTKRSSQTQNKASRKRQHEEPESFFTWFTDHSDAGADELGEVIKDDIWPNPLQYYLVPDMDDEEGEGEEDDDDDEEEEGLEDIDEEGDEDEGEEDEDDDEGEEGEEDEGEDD
Chain of UniProt P51575 (whole entry, unmodified, looked up): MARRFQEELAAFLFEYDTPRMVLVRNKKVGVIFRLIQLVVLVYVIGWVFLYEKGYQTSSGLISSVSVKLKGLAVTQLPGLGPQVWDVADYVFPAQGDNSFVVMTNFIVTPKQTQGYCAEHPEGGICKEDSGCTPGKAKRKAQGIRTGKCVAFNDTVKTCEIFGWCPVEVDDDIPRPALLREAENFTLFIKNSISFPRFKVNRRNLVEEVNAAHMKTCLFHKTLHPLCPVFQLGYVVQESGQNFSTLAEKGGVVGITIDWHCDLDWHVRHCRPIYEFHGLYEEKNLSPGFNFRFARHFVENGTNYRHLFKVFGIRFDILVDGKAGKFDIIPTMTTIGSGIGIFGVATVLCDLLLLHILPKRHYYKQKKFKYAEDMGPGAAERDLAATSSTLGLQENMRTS
Chain of UniProt P00698 (whole entry, looked up): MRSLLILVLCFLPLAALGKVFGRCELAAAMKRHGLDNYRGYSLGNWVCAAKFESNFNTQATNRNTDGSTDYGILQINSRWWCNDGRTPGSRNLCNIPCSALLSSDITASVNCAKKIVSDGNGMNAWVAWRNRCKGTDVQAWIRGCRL

SMILES | tested on | assay | test system | conditions | how to read | measurement | value
CNC[C@H](O)c1cccc(O)c1 | Alpha-1D adrenergic receptor, Δ1-79 (ADRA1D, Homo sapiens, UniProt P25100) | calcium mobilisation, agonist | COS-7 transfected |  | baseline: 3 µM ionomycin | Emax | ~25%
O=C(COP(=O)(O)O)[C@@H](O)[C@H](O)[C@H](O)COP(=O)(O)O | Large ribosomal subunit protein uL13 (Homo sapiens, UniProt P40429) | thermal proteome profiling, refers to: RPL13A | HepG2 cell lysate | concentration not given, 57 over 37 °C | baseline: compound over control | thermal stability ratio | 0.714 and 0.88 and 0.522
CCCCCCCCCCCCC/C=C/[C@@H](O)[C@H](CO)NC(=O)CCCCCCCCCCCCC | Protein SET (SET, Homo sapiens, UniProt Q01105) | lipid binding, GFP pull-down LC-MS/MS | A549 overexpressing GFP-tagged protein |  | baseline: eluate plus flow-through | lipid fraction bound | 4.7%
O=C1C[C@@H](c2ccccc2)Oc2cc(O)cc(O)c21 | Aryl hydrocarbon receptor | reporter gene, agonist, luciferase reporter | ZF-4 | 30000 µM | baseline: vehicle control | fold change | 0.594
NCCCCC(=O)O | SLC6A6 (Homo sapiens, UniProt P31641, G62A) | binding, microscale thermophoresis |  | 122 nM, room temperature, with: 50 nM labelled protein | higher = more binding | normalised MST signal | 0.0153
Cc1cnn2ncc(-c3ccnc(N(C)C)n3)c2c1 | ABL1 (Homo sapiens, UniProt P00519, F317L) | KINOMEscan |  | 1 µM |  | remaining binding | 51% and 86%
Nc1ccc(C(=O)O)cc1 | BEST1, with wild-type BEST1 (Homo sapiens, UniProt O76090, A243T) | whole-cell patch clamp | HEK293 co-expressing WT and A243T mutant | concentration not given, membrane potential 80 mV |  | current density | 28.8 pA/pF and 8.29 pA/pF and 31.7 pA/pF and 25 pA/pF and 26.8 pA/pF and 22.8 pA/pF and 5.84 pA/pF
CCN1CCC[C@H]1CNC(=O)c1c(O)c(Cl)cc(Cl)c1OC | Probable G-protein coupled receptor 25 (GPR25, Homo sapiens, UniProt O00155) | β-arrestin recruitment, TANGO luminescence, refers to: GPR25 |  | concentration not given | baseline: basal luminescence | log2 fold change | -0.036
Cc1cc2ccccc2c2ccc3ccccc3c12 | Aryl hydrocarbon receptor | reporter gene, agonist, luciferase reporter | ZF-4 | 1111.11 µM | baseline: vehicle control | fold change | 4.43
COC(=O)c1cccc(C(=O)c2c[nH]c3ccc(OC)cc23)n1 | AHR (Homo sapiens, UniProt P35869) | reporter gene, agonist, XRE luciferase | HepG2 |  | baseline: ITE | Emax | 60 ± 6%
COC1=C(OC)C(=O)C(CC=C(C)C)=C(C)C1=O | FSP1 F354A mutant | substrate |  | with: 100 µM co-substrate |  | Km | 26.9 ± 10.6 µM
CC(=O)c1ccc(C)cc1 | Or8a1 (Mus musculus, UniProt Q60893) | odorant-evoked current, agonist | isolated olfactory neurons |  | baseline: acetophenone saturated response | Emax | 100 ± 1%
Nc1ncnc2c1ncn2[C@@H]1O[C@H](COP(=O)(O)CP(=O)(O)OP(=O)(O)O)[C@@H](O)[C@H]1O | P2X purinoceptor 1 (P2RX1, Homo sapiens, UniProt P51575, K215A) | saturation binding | HEK293 | 52 nM |  | specific binding | 2940 CCPM and 3330 CCPM
C[C@@H]1CCN(c2nccc(-c3cnn4ncccc34)n2)C1 | ABL1 (Homo sapiens, UniProt P00519, T315I) | KINOMEscan |  | 1 µM |  | remaining binding | 60% and 100%
CC1(C)S[C@@H]2[C@H](NC(=O)[C@H](N)c3ccccc3)C(=O)N2[C@H]1C(=O)O | T1, DNA aptamer | ITC |  |  |  | Kd | 1.8 µM
Cc1ccc(C(=O)Nc2ccc3ccccc3c2)o1 | Otop1 (Mus musculus, UniProt Q80VM9) | voltage ramp patch-clamp |  | 10 µM, Cs+ solution |  | reversal potential | 53.2 mV and 57 mV and 56.1 mV and 50 mV and 59.6 mV
Nc1ncnc2c1ncn2[C@@H]1O[C@H](COP(=O)(O)OP(=O)(O)NP(=O)(O)O)[C@@H](O)[C@H]1O | Cell cycle histidine kinase CckA, CA domain (Caulobacter vibrioides, UniProt Q9X688) | ITC |  | with: c-di-GMP 100 µM |  | ΔS | 11.6 cal/mol/K
O=c1nc(SCc2cc(F)cc(C(F)(F)F)c2)nc(SCc2csc3ccc(Cl)cc23)[nH]1 | TOP2A | DNA relaxation |  | 15.6 µM, replicate 2 |  | relaxed DNA | 5.3%

SMILES | tested on | assay | test system | conditions | how to read | measurement | value
Cc1ccc(NC(=O)/C=C/c2cccs2)cc1 | Nicotinic acetylcholine receptor alpha9/alpha10 (Rattus norvegicus, UniProt P43144+Q9JLB5) | positive allosteric modulator | rat α9α10 expressing cells | with: ACh 100 µM |  | potentiation EC50 | inactive
CC(=O)Nc1ccc(O)cc1 | BRD4 (Homo sapiens, UniProt O60885) | 19F NMR, refers to: tyrosine 65 |  | 95 µM | baseline: free protein | chemical shift change | 0.009 ppm
Cc1cc(NS(=O)(=O)c2ccc(N)cc2)no1 | folP (Bacteria, UniProt P0AC13) | CETSA HiBiT | whole cells |  |  | melting temperature | 51.2 °C
CCCCCCCCCCCCC/C=C/[C@@H](O)[C@H](CO)NC(=O)CCCCCCCCCCCCCCCCCCCCCCCCC | Protein SET (SET, Homo sapiens, UniProt Q01105, Y135C) | lipid binding, GFP pull-down LC-MS/MS | A549 overexpressing GFP-tagged protein |  | baseline: eluate plus flow-through | lipid fraction bound | 10.9%
CC1CCCN(C(=O)c2cc3ncccn3n2)C1 (stereo not drawn) | DDB1- and CUL4-associated factor 7 | binding, affinity selection mass spectrometry |  |  | baseline: other proteins in batch | fold enrichment | 1.08
Nc1ccc2ccc3cccc4ccc1c2c34 | Aryl hydrocarbon receptor | reporter gene, agonist, luciferase reporter | ZF-4 | 13.72 µM | baseline: vehicle control | fold change | 1.3
N[C@@H](CO)C(=O)O | Lysozyme C (LYZ, Gallus gallus, UniProt P00698) | intrinsic fluorescence |  | concentration not given, pH 6.9, 25 °C, lysozyme 10 µM |  | number of binding sites | 0.85 ± 0.08
O=c1nc(SCc2cc(F)cc(C(F)(F)F)c2)nc(SCc2ccc3sccc3c2)[nH]1 | TOP2A | ATPase activity |  | 15.6 µM, with: ATP 0.75 mM |  | ATP hydrolysis rate | 1.56 µM/min and 0.83 µM/min
O=C(Nc1cccc2[nH]ccc12)c1ccccc1 | Alpha-synuclein (SNCA, Homo sapiens, UniProt P37840) | ThT kinetics |  | concentration not given, with: SNCA 2 µM |  | fibril formation | inhibited
CC[C@H](C)[C@H](NC(=O)[C@H](CCCNC(=N)N)NC(=O)[C@H](Cc1c[nH]cn1)NC(=O)[C@H](CCCNC(=N)N)NC(=O)[C@H](CC(=O)O)NC(=O)[C@H](CC(=O)O)NC(=O)[C@@H](NC(=O)[C@H](CC(=O)O)NC(=O)[C@@H]1CCCN1C(=O)[C@@H](N)CC(C)C)[C@@H](C)O)C(=O)N[C@@H](CCC(=O)O)C(=O)N[C@@H](CCC(=O)O)C(=O)N[C@@H](CCCCN)C(=O)N[C@@H](CCCNC(=N)N)C(=O)N[C@@H](CCCCN)C(=O)N[C@@H](CCCNC(=N)N)C(=O)N[C@H](C(=O)N[C@@H](Cc1ccc(O)cc1)C(=O)N[C@@H](CCC(=O)O)C(=O)N[C@H](C(=O)N[C@@H](Cc1ccccc1)C(=O)N[C@@H](CCCCN)C(=O)N[C@@H](CO)C(=O)N[C@H](C(=O)N[C@@H](CCSC)C(=O)N[C@@H](CCCCN)C(=O)N[C@@H](CCCCN)C(=O)N[C@@H](CO)C(=O)N1CCC[C@H]1C(=O)N[C@@H](C)C(=O)N[C@@H](CC(N)=O)C(=O)NCC(=O)N1CCC[C@H]1C(=O)O)[C@@H](C)CC)[C@@H](C)O)[C@@H](C)O | NF-kappa-B inhibitor alpha | binding, ITC |  | pH 7.5, 293 K, 50 mM NaCl |  | -TΔS | -5 ± 0.2 kcal/mol
O=C(O)c1ccc(Nc2ncc3c(n2)-c2ccc(Cl)cc2C(c2c(F)cccc2F)=NC3)cc1 | human IRAK1(h) | kinase activity |  | 1 µM |  | remaining activity | 110%
Cc1ccc(N2CC(C(N)=O)CC2=O)cc1 (stereo not drawn) | DDB1- and CUL4-associated factor 7 | binding, affinity selection mass spectrometry |  |  | baseline: other proteins in batch | log fold enrichment | 0
C[C@H](CCCOc1ccc(C(=O)O)cc1)[C@H]1CC[C@H]2[C@@H]3CC=C4C[C@@H](O)CC[C@]4(C)[C@H]3CC[C@]12C | NR1H3 (Homo sapiens, UniProt Q13133) | reporter gene, GAL4-LBD transactivation | HepG2 |  |  | efficacy | 10.6 ± 1.5%
O=C(O)CN1Cc2ccccc2C1=O | Ubiquitin carboxyl-terminal hydrolase 13, ZnF-UBD domain (USP13, Homo sapiens, UniProt Q92995) |  |  |  |  | Kd | > 1000 µM
Nc1nc2c(ncn2[C@@H]2O[C@H](COP(=O)(O)OP(=O)(O)O)[C@@H](OP(=O)(O)OP(=O)(O)O)[C@H]2O)c(=O)[nH]1 | Xanthine-guanine phosphoribosyltransferase (Escherichia coli, UniProt P0A9M5) | ITC |  | concentration not given |  | binding stoichiometry | 1.02 ± 0.002
CC[C@H](C)[C@H](NC(=O)[C@H](CCCNC(=N)N)NC(=O)[C@H](Cc1c[nH]cn1)NC(=O)[C@H](CCCNC(=N)N)NC(=O)[C@H](CC(=O)O)NC(=O)[C@H](CC(=O)O)NC(=O)[C@@H](NC(=O)[C@H](CC(=O)O)NC(=O)[C@@H]1CCCN1C(=O)[C@@H](N)CC(C)C)[C@@H](C)O)C(=O)N[C@@H](CCC(=O)O)C(=O)N[C@@H](CCC(=O)O)C(=O)N[C@@H](CCCCN)C(=O)N[C@@H](CCCNC(=N)N)C(=O)N[C@@H](CCCCN)C(=O)N[C@@H](CCCNC(=N)N)C(=O)N[C@H](C(=O)N[C@@H](C)C(=O)N[C@@H](CCC(=O)O)C(=O)N[C@H](C(=O)N[C@@H](Cc1ccccc1)C(=O)N[C@@H](CCCCN)C(=O)N[C@@H](CO)C(=O)N[C@H](C(=O)N[C@@H](CCSC)C(=O)N[C@@H](CCCCN)C(=O)N[C@@H](CCCCN)C(=O)N[C@@H](CO)C(=O)N1CCC[C@H]1C(=O)N[C@@H](Cc1ccccc1)C(=O)N[C@@H](CC(N)=O)C(=O)NCC(=O)N1CCC[C@H]1C(=O)O)[C@@H](C)CC)[C@@H](C)O)[C@@H](C)O | NF-kappa-B inhibitor alpha | binding, ITC |  | pH 7.5, 293 K, 50 mM NaCl |  | -TΔS | -5.2 ± 0.1 kcal/mol
C=CC(=O)N1CCC[C@@H](n2nc(-c3ccc(Oc4ccccc4)cc3)c3c(N)ncnc32)C1 | Elongation factor 1-beta (Homo sapiens, UniProt P24534) |  |  | 0.1 µM |  | remaining activity | 28.4%
Cn1cc(-c2ccc(-c3cncc(Cl)c3N3CCC4(CCNC4=O)CC3)cc2)cn1 | COLO 205 | gene expression, microarray, refers to: LCN2 mRNA |  | concentration not given, 2 h | baseline: untreated cells | log2 fold change | 2.21

Repeated from above:
SMILES | tested on | assay | test system | conditions | how to read | measurement | value
C[C@@H]1CCN(c2nccc(-c3cnn4ncccc34)n2)C1 | ABL1 (Homo sapiens, UniProt P00519, T315I) | KINOMEscan |  | 1 µM |  | remaining binding | 60% and 100%
CC1(C)S[C@@H]2[C@H](NC(=O)[C@H](N)c3ccccc3)C(=O)N2[C@H]1C(=O)O | T1, DNA aptamer | ITC |  |  |  | Kd | 1.8 µM
Cc1ccc(C(=O)Nc2ccc3ccccc3c2)o1 | Otop1 (Mus musculus, UniProt Q80VM9) | voltage ramp patch-clamp |  | 10 µM, Cs+ solution |  | reversal potential | 53.2 mV and 57 mV and 56.1 mV and 50 mV and 59.6 mV
Nc1ncnc2c1ncn2[C@@H]1O[C@H](COP(=O)(O)OP(=O)(O)NP(=O)(O)O)[C@@H](O)[C@H]1O | Cell cycle histidine kinase CckA, CA domain (Caulobacter vibrioides, UniProt Q9X688) | ITC |  | with: c-di-GMP 100 µM |  | ΔS | 11.6 cal/mol/K
O=c1nc(SCc2cc(F)cc(C(F)(F)F)c2)nc(SCc2csc3ccc(Cl)cc23)[nH]1 | TOP2A | DNA relaxation |  | 15.6 µM, replicate 2 |  | relaxed DNA | 5.3%
